Results pooled from the literature.
Parts stem from different laboratories: compare values within a part only. Values joined by “and” are separate records of one study, mostly repeats; a detail may differ.
Sequence of UniProt P41143 (whole entry, unmodified, looked up): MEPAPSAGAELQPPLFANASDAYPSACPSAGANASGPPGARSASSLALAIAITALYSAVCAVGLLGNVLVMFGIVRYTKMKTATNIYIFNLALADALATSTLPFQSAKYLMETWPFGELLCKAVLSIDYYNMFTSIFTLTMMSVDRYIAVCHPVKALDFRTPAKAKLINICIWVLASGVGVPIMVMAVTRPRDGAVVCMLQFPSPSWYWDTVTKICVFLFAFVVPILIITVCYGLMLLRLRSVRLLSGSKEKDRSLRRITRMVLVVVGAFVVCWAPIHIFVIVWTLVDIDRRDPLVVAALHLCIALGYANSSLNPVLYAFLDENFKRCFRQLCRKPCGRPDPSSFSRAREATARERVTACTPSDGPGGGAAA

Set 1
Compound: Cn1cc(-c2cccc(CN3CCC4(CC3)COc3c4ccc4c3CN([C@H]3CCC(=O)NC3=O)C4=O)c2)cn1
Mode: degrader
CRBN/Zinc finger protein Helios: CRBN/Zinc finger protein Helios (Homo sapiens, UniProt Q96SW2+Q9UKS7)
Sequence of UniProt Q9UKS7 (whole entry, looked up): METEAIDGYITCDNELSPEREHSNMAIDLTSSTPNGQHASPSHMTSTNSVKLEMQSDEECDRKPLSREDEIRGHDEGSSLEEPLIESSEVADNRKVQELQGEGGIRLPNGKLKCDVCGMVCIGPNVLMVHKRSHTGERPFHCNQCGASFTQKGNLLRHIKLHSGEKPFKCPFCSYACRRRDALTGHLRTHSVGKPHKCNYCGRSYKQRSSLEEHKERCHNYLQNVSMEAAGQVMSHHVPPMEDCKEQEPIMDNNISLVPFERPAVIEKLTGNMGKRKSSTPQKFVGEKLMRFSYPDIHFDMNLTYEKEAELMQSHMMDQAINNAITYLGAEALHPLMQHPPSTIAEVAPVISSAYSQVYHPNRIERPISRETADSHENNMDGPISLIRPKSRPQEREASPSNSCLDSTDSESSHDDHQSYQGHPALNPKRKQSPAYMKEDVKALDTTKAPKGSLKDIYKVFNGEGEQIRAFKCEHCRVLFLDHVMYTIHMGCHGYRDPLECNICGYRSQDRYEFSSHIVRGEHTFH
Sequence of UniProt Q96SW2 (whole entry, looked up): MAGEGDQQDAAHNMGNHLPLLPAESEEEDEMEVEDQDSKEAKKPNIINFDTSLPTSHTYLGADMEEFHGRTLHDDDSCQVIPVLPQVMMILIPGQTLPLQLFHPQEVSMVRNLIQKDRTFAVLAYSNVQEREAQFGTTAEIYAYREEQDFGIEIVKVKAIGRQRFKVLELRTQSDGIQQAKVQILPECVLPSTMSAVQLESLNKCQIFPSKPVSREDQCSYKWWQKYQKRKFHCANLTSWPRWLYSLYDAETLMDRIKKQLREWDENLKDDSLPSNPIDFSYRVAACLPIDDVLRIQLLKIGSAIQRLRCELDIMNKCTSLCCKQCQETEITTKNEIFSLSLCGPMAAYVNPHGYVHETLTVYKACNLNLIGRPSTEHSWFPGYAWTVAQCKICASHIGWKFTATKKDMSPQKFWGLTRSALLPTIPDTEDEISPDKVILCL
Ikzf2/Crbn I391V: Ikzf2/Crbn (Mus musculus, UniProt P81183+Q8C7D2, I391V)
Sequence of UniProt P81183 (whole entry, unmodified, looked up): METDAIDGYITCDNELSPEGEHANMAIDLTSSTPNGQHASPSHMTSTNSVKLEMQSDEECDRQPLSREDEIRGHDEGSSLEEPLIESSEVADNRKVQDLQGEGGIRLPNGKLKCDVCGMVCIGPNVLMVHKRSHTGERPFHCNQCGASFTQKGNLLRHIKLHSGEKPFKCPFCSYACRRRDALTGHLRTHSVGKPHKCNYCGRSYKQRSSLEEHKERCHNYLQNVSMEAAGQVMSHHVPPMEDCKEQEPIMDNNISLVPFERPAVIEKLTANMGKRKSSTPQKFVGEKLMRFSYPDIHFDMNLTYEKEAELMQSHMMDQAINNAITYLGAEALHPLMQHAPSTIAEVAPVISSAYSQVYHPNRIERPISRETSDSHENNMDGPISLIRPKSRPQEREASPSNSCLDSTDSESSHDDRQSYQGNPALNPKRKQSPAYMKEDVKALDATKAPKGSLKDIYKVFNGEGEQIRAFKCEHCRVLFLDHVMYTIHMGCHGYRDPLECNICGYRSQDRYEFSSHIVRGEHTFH
Sequence of UniProt Q8C7D2 (whole entry, unmodified, looked up): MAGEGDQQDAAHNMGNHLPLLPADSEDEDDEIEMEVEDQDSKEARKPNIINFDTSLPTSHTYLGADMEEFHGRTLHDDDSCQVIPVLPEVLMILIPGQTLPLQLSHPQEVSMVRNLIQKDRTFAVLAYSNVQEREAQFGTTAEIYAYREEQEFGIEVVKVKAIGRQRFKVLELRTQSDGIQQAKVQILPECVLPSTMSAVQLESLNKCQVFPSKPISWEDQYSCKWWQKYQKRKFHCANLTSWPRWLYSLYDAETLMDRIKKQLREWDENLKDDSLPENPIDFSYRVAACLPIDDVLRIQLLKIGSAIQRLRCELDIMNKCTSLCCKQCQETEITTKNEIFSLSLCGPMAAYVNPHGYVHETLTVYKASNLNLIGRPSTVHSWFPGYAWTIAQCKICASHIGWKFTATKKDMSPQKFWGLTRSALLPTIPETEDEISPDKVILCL
For CRBN/Zinc finger protein Helios; HiBiT; HEK293; 333.3 nM, 0.5 h: protein remaining read 65.4% and 74.3%.
Ikzf2/Crbn I391V; Crbn I391V mouse, spleen; 30 mg/kg, 6 h — protein remaining: 17% and 12% and 16%.
The protein remaining was 13.6% and 10.2% (CRBN/Zinc finger protein Helios; HiBiT; HEK293; 37.04 nM).
The protein remaining was 15.5% and 9.2% (CRBN/Zinc finger protein Helios; HiBiT; HEK293; 37.04 nM, 6 h).
CRBN/Zinc finger protein Helios; HiBiT; HEK293; 0.05081 nM, 6 h — protein remaining: 88.2% and 88.4%.
CRBN/Zinc finger protein Helios; HiBiT; HEK293; 12.35 nM — protein remaining: 20% and 15%.
It gave 97.5% and 97% for protein remaining (CRBN/Zinc finger protein Helios; HiBiT; HEK293; 0.01694 nM, 3 h).
The protein remaining was 12% and 21% and 1% and 8% (Ikzf2/Crbn I391V; Crbn I391V mouse, spleen; 100 mg/kg, 6 h).
CRBN/Zinc finger protein Helios; HiBiT; HEK293; 37.04 nM, 3 h — protein remaining: 17.6% and 18.7%.
It gave 65% and 55.6% for protein remaining (CRBN/Zinc finger protein Helios; HiBiT; HEK293; 4.115 nM, 1 h).
For CRBN/Zinc finger protein Helios; HiBiT; HEK293; 0.01694 nM: protein remaining read 105% and 103%.

Set 2
SMILES: COCC1CC2C(CCC3C(O)CCC32)c2ccc(O)cc21 (stereo not shown)
A549; microarray, refers to: MCM6; 100 µM; relative to: untreated — “log2 fold change”: -0.129.
SK-OV-3; microarray, refers to: RFC3; 100 µM; relative to: untreated — “log2 fold change”: -0.0738.
It gave -0.28 and -0.23 and -0.245 and -0.266 and -0.229 for “log2 fold change” (A549; DNA microarray, refers to: KIF20A; 100 µM; relative to: untreated cells).
The “log2 fold change” was -0.375 (SK-OV-3; microarray, refers to: SPC25; 100 µM; relative to: untreated).
It gave 5.03 for “log2 fold change” (PANC-1; DNA microarray, refers to: ADAMTS8 mRNA; 100 µM; relative to: control).
It gave 0.146 for “log2 fold change” (PANC-1; DNA microarray, refers to: MCM7; 25 µM; relative to: untreated cells).
The “log2 fold change” was -0.364 (SK-OV-3; DNA microarray, refers to: UBD; 25 µM; relative to: untreated).
For A549; microarray, refers to: PIF1; 100 µM; relative to: untreated: “log2 fold change” read -0.523.

Other studies, line by line
With `N=C(N)NCCCCCCN1CCC23c4c5ccc(O)c4OC2c2nc4ccccc4cc2CC3(O)C1C5` (stereo not shown) the EC50 was 11 nM (Delta-type opioid receptor, with Gi1 (OPRD1, Homo sapiens, UniProt P41143, S135A); G protein activation, agonist).
`C=CCN1C(=O)C(O)(C(=O)O)Oc2cc(F)ccc21` (stereo not shown) gave an inhibition of 13% (Arabidopsis thaliana; hypocotyl length; Col-0; 12.5 µg/mL, 7 days, seed germination, dark).
For `CC(C)C[C@@H]1NC(=O)[C@@H](N(C)C(=O)[C@@H](NC(=O)[C@@H]2C[C@@H](F)CN2C(=O)C2(C(F)(F)F)CC(F)(F)C2)C2CC2)CCCCCCCN(C)C(=O)[C@H](Cc2cc(Cl)cnc2OC2CC2)N(C)C1=O`, “cleaved caspase-3 positive cells” read 6.01% and 2.23% and 4.17% (immunohistochemistry; mice, sample A PDX, tumour; oral, 100 mg/kg three times daily for 4 d, 8 h after last dose).

Some of these lines once more (set 2):
It gave 0.146 for “log2 fold change” (PANC-1; DNA microarray, refers to: MCM7; 25 µM; relative to: untreated cells).
